Measurements pooled from the literature.
Each line is one published result; not all experiments were run side by side. In brackets after ≈: the same amount, converted by molar mass.
Organism: Staphylococcus aureus

Structure (SMILES) | assay | system | conditions | endpoint | value
CCCCCC(=O)Oc1c(C)c(OC)c2c(/C=C/c3ccccc3)c(CCCC)c(=O)oc2c1C | microbial killing, broth dilution | ATCC25923 |  | MBC | > 5000 mg/L
O=C1C=CC(=O)N1CCCCOCc1cn(CCCCN2C(=O)C=CC2=O)nn1 | growth, turbidity OD600 |  | 24 h | IC50 | > 100 µM
CC[C@H](C)[C@H](NC(=O)[C@H](CC1CCCCC1)NC(=O)[C@H](Cc1c[nH]c2ccccc12)NC(=O)[C@@H](N)CCCN)C(=O)N[C@H](Cc1ccccc1)C(=O)N[C@@H](Cc1cn(Cc2ccccc2)cn1)C(N)=O | bacterial growth | ATCC 29213 |  | IC50 | > 20 mg/L
CC(CCCOC(=O)CCC[N+](C)(C)C)C1CCC2C3C(OC(=O)CCC[N+](C)(C)C)CC4CC(OC(=O)CCC[N+](C)(C)C)CCC4(C)C3CC(OC(=O)CCC[N+](C)(C)C)C12C (stereo not shown) | microbial growth, disc diffusion | ATCC29213 | 250 µg/disc, 24 h | inhibition zone | 13 mm
C=CS(=O)(=O)NCCCCCCCCCCOCc1cn(CCCCCCCCCCNS(=O)(=O)C=C)nn1 | growth, turbidity OD600 |  | 24 h | IC50 | > 100 µM
C=C(NC(=O)c1csc(-c2nc3c(cc2O)-c2nc(cs2)C(=O)NC(C(C)O)C(=O)NC(=C(C)OC)c2nc(cs2)C(=O)NC2c4nc(cs4)C(=O)NC(COC(=O)c4c5c6c(cccc6n4O)COC(=O)C(OC4CC(C)(O)C(N(C)C)C(C)O4)C2OC5)c2nc-3cs2)n1)C(N)=O (stereo not shown) |  | MRSA ATCC 43300 | 2 × MIC | post-antibiotic effect | ~1.1 h
O=C1C=CC(=O)N1CCCCCCCCOCc1cn(CCCCCCCCN2C(=O)C=CC2=O)nn1 | growth, turbidity OD600 |  | 24 h | IC50 | > 100 µM
CCCC(=O)Oc1c(C)c(OC)c2c(/C=C/c3ccccc3)c(CC)c(=O)oc2c1C | microbial killing, broth dilution | ATCC25923 |  | MBC | > 5000 mg/L
C=C(C)C(=O)NCCCCCCOCc1cn(CCCCCCNC(=O)C(=C)C)n[n+]1C | growth, turbidity OD600 |  | 24 h | IC50 | > 100 µM
CC(CCCOC(=O)CCC[N+](C)(C)C)C1CCC2C3CCC4CC(OC(=O)CCC[N+](C)(C)C)CCC4(C)C3CC(OC(=O)CCC[N+](C)(C)C)C12C (stereo not shown) | microbial growth, disc diffusion | ATCC29213 | 125 µg/disc, 24 h | inhibition zone | 23 mm
COc1cc2c(cc1OC)-c1cc3ccc(OC)c(OC)c3c[n+]1CC2.[Cl][Fe-]([Cl])([Cl])[Cl] |  |  | 24 h, 37 °C | MIC50 | 165 µM
C=CC(=O)NCCCCCCCCOCc1cn(CCCCCCCCNC(=O)C=C)n[n+]1C | growth, turbidity OD600 |  | 24 h | IC50 | > 100 µM
O=c1c(O)ccc(-c2ccccc2)cc1O | microbial growth, broth dilution | ATCC29213 |  | MIC80 | 19.8 µM (≈ 4.24 µg/mL)
COc1cc2c(cc1OC)C1Cc3ccc(OC)c(OC)c3C[NH+]1CC2.[Cl][Fe-]([Cl])([Cl])[Cl] (stereo not shown) |  |  | 24 h, 37 °C | MBC | > 1600 µM
CC(CCCOC(=O)CCC[N+](C)(C)C)C1CCC2C3CCC4CC(OC(=O)CCC[N+](C)(C)C)CCC4(C)C3CCC12C (stereo not shown) | microbial growth, disc diffusion | ATCC29213 | 125 µg/disc, 24 h | inhibition zone | 15 mm
CC[C@H](C)[C@H](NC(=O)[C@H](CC1CCCCC1)NC(=O)[C@@H](Cc1ccccc1)NC(=O)[C@@H](N)CCCN)C(=O)N[C@H](Cc1ccccc1)C(=O)N[C@@H](Cc1cn(Cc2ccccc2)cn1)C(N)=O | bacterial growth | ATCC 29213 |  | IC50 | > 20 mg/L
CC(C)C1=CC2=CCC3C(C)(C(=O)OCCC[N+](C)(C)C)CCCC3(C)C2CC1 (stereo not shown) | microbial growth, disc diffusion | ATCC29213 | 125 µg/disc, 24 h | inhibition zone | 18 mm
CC[C@H](C)[C@H](NC(=O)[C@H](CC1CCCCC1)NC(=O)[C@@H](CC(C)C)NC(=O)[C@@H](N)CCCN)C(=O)N[C@H](Cc1ccccc1)C(=O)N[C@@H](Cc1cn(Cc2ccccc2)cn1)C(N)=O | bacterial growth | ATCC 29213 |  | IC50 | > 20 mg/L
COc1c(C)c(OC(=O)c2ccccc2)c(C)c(OC(=O)c2ccccc2)c1C(=O)/C=C/c1ccccc1 | microbial killing, broth dilution | ATCC25923 |  | MBC | > 5000 mg/L
C=C(C)C(=O)NCCCCCCOCc1cn(CCCCCCNC(=O)C(=C)C)nn1 | growth, turbidity OD600 |  | 24 h | IC50 | > 100 µM
CC(C)[C@H]1NC(=O)[C@H](Cc2ccccc2)NC(=O)[C@@H](C(C)C)NC(=O)[C@@H](C)NC(=O)[C@H](CO)NC(=O)[C@@H](Cc2c[nH]c3ccccc23)NC(=O)[C@@H](CO)NC1=O | broth dilution |  |  | MIC90 | > 50 µM
N=C(N)NCCC[C@@H]1NC(=O)[C@H](CCCNC(=N)N)NC(=O)[C@@H](CCCNC(=N)N)NC(=O)[C@@H](CCCNC(=N)N)NC(=O)[C@@H](C(c2ccccc2)c2ccccc2)NC(=O)[C@H](Cc2c[nH]c3ccccc23)NC(=O)[C@@H](C(c2ccccc2)c2ccccc2)NC1=O |  | MRSA ATCC BAA-1556 | MIC, 24 h, pre-formed biofilm | biofilm reduction | 41 to 49%
CC(C)c1ccc2c(c1)CCC1C(C)(CN(CC(O)C[N+](C)(C)C)CC(O)C[N+](C)(C)C)CCCC21C (stereo not shown) | microbial growth, disc diffusion | ATCC29213 | 31.2 µg/disc, 24 h | inhibition zone | 11 mm
O=c1c(O)ccccc1Br | microbial growth, broth dilution | ATCC29213 |  | MIC80 | 16.1 µM (≈ 3.24 µg/mL)
C=C1CNCC2Nc3c(F)cc(Br)cc3C12CCNS(=O)(=O)c1ccc(Cl)cc1 (stereo not shown) |  | MRSA ATCC BAA-44 | with: amoxicillin/clavulanic acid | minimum resensitizing concentration | 4 µg/mL
CC[C@H](C)[C@H](NC(=O)[C@H](CC1CCCCC1)NC(=O)[C@H](CC1CCCCC1)NC(=O)[C@@H](N)CCCN)C(=O)N[C@H](Cc1ccccc1)C(=O)N[C@@H](Cc1cn(Cc2ccccc2)cn1)C(N)=O |  | ATCC 33591, methicillin-resistant |  | IC50 | > 20 mg/L
C=C1CN(S(=O)(=O)c2ccc([N+](=O)[O-])cc2)CC2Nc3c(F)cc(Br)cc3C12CCNS(=O)(=O)c1ccc(Cl)cc1 (stereo not shown) |  | MRSA ATCC BAA-44 | with: cefazolin | minimum resensitizing concentration | > 32 µg/mL
CC[C@H](C)[C@H](NC(=O)[C@H](CC1CCCCC1)NC(=O)[C@H]1CCCN1C(=O)[C@@H](N)CCCN)C(=O)N[C@H](Cc1ccccc1)C(=O)N[C@@H](Cc1cn(Cc2ccccc2)cn1)C(N)=O |  | ATCC 33591, methicillin-resistant |  | IC50 | > 20 mg/L

A few entries again:
Structure (SMILES) | assay | system | conditions | endpoint | value
CC(C)[C@H]1NC(=O)[C@H](Cc2ccccc2)NC(=O)[C@@H](C(C)C)NC(=O)[C@@H](C)NC(=O)[C@H](CO)NC(=O)[C@@H](Cc2c[nH]c3ccccc23)NC(=O)[C@@H](CO)NC1=O | broth dilution |  |  | MIC90 | > 50 µM
C=C1CN(S(=O)(=O)c2ccc([N+](=O)[O-])cc2)CC2Nc3c(F)cc(Br)cc3C12CCNS(=O)(=O)c1ccc(Cl)cc1 (stereo not shown) |  | MRSA ATCC BAA-44 | with: cefazolin | minimum resensitizing concentration | > 32 µg/mL
COc1cc2c(cc1OC)C1Cc3ccc(OC)c(OC)c3C[NH+]1CC2.[Cl][Fe-]([Cl])([Cl])[Cl] (stereo not shown) |  |  | 24 h, 37 °C | MBC | > 1600 µM
